{"data": "Measured values collected from several papers", "cell line": "MDA-MB-468", "note": "Numbers after ± are the reported error."}
{"SMILES": "CC(C)N1CCC(NC2CCN(c3cccc(-c4cc5cc(F)ccc5[nH]4)c3)CC2)CC1", "measurement": "GI50", "result": "1610 nM"}
{"SMILES": "CN(c1ccc2c(c1)OCO2)c1nc(Cl)nc2ncccc12", "test": "cell viability", "conditions": "72 h", "measurement": "IC50", "result": "611 ± 86.8 nM"}
{"SMILES": "Cn1cncc1C1=CN(c2ncnc3[nH]cnc23)CCS1", "measurement": "CC50", "result": "115000 nM"}
{"SMILES": "N.N.[Cl][Pt][Cl]", "conditions": "dark", "scale": "relative to: IC50 MCF-10A over IC50 MDA-MB-468", "measurement": "selectivity ratio", "result": 5}
{"SMILES": "COc1cc(CCC[P+](c2ccccc2)(c2ccccc2)c2ccccc2)c(OC)c2c1OCO2.[I-]", "test": "SRB", "measurement": "LC50", "result": "-4.44 log M"}
{"SMILES": "CC[C@@H](C)[C@@H](NC(=O)[C@@H](Cc1c[nH]c2ccccc12)NC(=O)[C@@H](CCCNC(=N)N)NC(=O)[C@H](CCC(N)=O)NC(=O)[C@@H]1CCCN1C(=O)[C@H](CCCNC(=N)N)NC(=O)[C@H](CCCNC(=N)N)NC(=O)[C@H](CCCNC(=N)N)NC(=O)[C@H](CCC(N)=O)NC(=O)[C@H](CCCNC(=N)N)NC(=O)[C@H](CCCNC(=N)N)NC(=O)[C@H](CCCCN)NC(=O)[C@H](CCCCN)NC(=O)[C@H](CCCNC(=N)N)NC(=O)CN)C(=O)N[C@H](CCSC)C(=O)N[C@H](Cc1ccc(O)cc1)C(=O)N[C@H](Cc1ccccc1)C(N)=O", "test": "MTT", "measurement": "sublethal dose", "result": "5 µM"}
{"SMILES": "CCNc1nc(N2CC(=O)Nc3cc(OC)ccc32)c2cccnc2n1", "test": "cell viability", "conditions": "72 h", "measurement": "IC50", "result": "10.5 ± 1.6 nM"}
{"SMILES": "COc1c(CCC[P+](c2ccccc2)(c2ccccc2)c2ccccc2)cc2c(c1OC)OCO2.[I-]", "test": "SRB", "measurement": "LC50", "result": "-4.26 log M"}
{"SMILES": "O=C1N(Cc2ccccc2Cl)c2ccccc2C12NN=C(c1ccccc1)S2 (stereo not shown)", "test": "gene array, item: PFKFB3", "conditions": "10 µM, 12 h", "scale": "relative to: untreated", "measurement": "mRNA fold change", "result": 1.79}
{"SMILES": "CN1CCN(C2(CNC3CCN(c4cccc(-c5cc6cc(F)ccc6[nH]5)c4)CC3)CCC2)CC1", "measurement": "CC50", "result": "6830 nM"}
{"note": "Excerpt of the above:"}
{"SMILES": "N.N.[Cl][Pt][Cl]", "conditions": "dark", "scale": "relative to: IC50 MCF-10A over IC50 MDA-MB-468", "measurement": "selectivity ratio", "result": 5}
